Measured values gathered from unrelated publications.
B1: ANGPTL8 (Homo sapiens, UniProt Q6UXH0); sequence looked up; chain APMGGPELAQHEELTLLFHGTLQLGQALNGVYRTTEGRLTKARNSLGLYGRTIELLGQEVSRGRDAAQELRASLLETQMEEDILQLQAEATAEVLGEVAQAQKVLRDSVQRLEVQLRSAWLGPAYREFEVLKAHADKQSHILWALTGHVQRQRREMVAQQHRLRQIQERLHTAALPA
B2: TFC1 1-649 (Saccharomyces cerevisiae, UniProt P32367); chain MPVEEPLATLSSIPDSSADQAPPLIADEFTLDLPRIPSLELPLNVSTKHSSIQKAIKMCGGIEKVKEAFKEHGPIESQHGLQLYLNDDTDSDGSKSYFNEHPVIGKRVPFRDESVILKVTMPKGTLSKNNNSVKDSIKSLKDSNKLRVTPVSIVDNTIKFREMSDFQIKLDNVPSAREFKSSFGSLEWNNFKSFVNSVPDNDSQPQENIGNLILDRSVKIPSTDFQLPPPPKLSMVGFPLLYKYKANPFAKKKKNGVTEVKGTYIKNYQLFVHDLSDKTVIPSQAHEQVLYDFEVAKKTKVYPGTKSDSKFYESLEECLKILRELFARRPIWVKRHLDGIVPKKIHHTMKIALALISYRFTMGPWRNTYIKFGIDPRSSVEYAQYQTEYFKIERKLLSSPIVKKNVPKPPPLVFESDTPGGIDSRFKFDGKRIPWYLMLQIDLLIGEPNIAEVFHNVEYLDKANELTGWFKELDLVKIRRIVKYELGCMVQGNYEYNKYKLKYFKTMLFVKESMVPENKNSEEGMGVNTNKDADGDINMDAGSQMSSNAIEEDKGIAAGDDFDDNGAITEEPDDAALENEEMDTDQNLKVPASIDDDVDDVDADEEEQESFDVKTASFQDIINKIAKLDPKTAETMKSELKGFVDEVDL
B3: EIF3J/GST 103-258 (Homo sapiens); Alexa Fluor 546 label; sequence looked up; chain EEPKVLTPEEQLADKLRLKKLQEESDLELAKETFGVNNAVYGIDAMNPSSRDDFTEFGKLLKDKITQYEKSLYYASFLEVLVRDVCISLEIDDLKKITNSLTVLCSEKQKQEKQSKAKKKKKGVVPGGGLKATMKDDLADYGGYDGGYVQDYEDFM
B4: ELM1 S519D (Saccharomyces cerevisiae, UniProt P32801); sequence looked up; chain MSPRQLIPTLIPEWAPLSQQSCIREDELDSPPITPTSQTSSFGSSFSQQKPTYSTIIGENIHTILDEIRPYVKKITVSDQDKKTINQYTLGVSAGSGQFGYVRKAYSSTLGKVVAVKIIPKKPWNAQQYSVNQVMRQIQLWKSKGKITTNMSGNEAMRLMNIEKCRWEIFAASRLRNNVHIVRLIECLDSPFSESIWIVTNWCSLGELQWKRDDDEDILPQWKKIVISNCSVSTFAKKILEDMTKGLEYLHSQGCIHRDIKPSNILLDEEEKVAKLSDFGSCIFTPQSLPFSDANFEDCFQRELNKIVGTPAFIAPELCHLGNSKRDFVTDGFKLDIWSLGVTLYCLLYNELPFFGENEFETYHKIIEVSLSSKINGNTLNDLVIKRLLEKDVTLRISIQDLVKVLSRDQPIDSRNHSQISSSSVNPVRNEGPVRRFFGRLLTKKGKKKTSGKGKDKVLVSATSKVTPSIHIDEEPDKECFSTTVLRSSPDSSDYCSSLGEEAIQVTDFLDTFCRSNEDLPNLTVNNDKQNSDMKTDRSESSSHSSLKIPTPIKAMIRLKSSPKENGNRTHINCSQDKPSSPLMDRTVGKRTVNNSGARKLAHSSNILNFKAYINSEDSDIRETVEDVKTYLNFADNGQI
B5: AHA2 850-948 (Arabidopsis thaliana, UniProt P19456); sequence looked up; chain WLNLFENKTAFTMKKDYGKEEREAQWALAQRTLHGLQPKEAVNIFPEKGSYRELSEIAEQAKRRAEIARLRELHTLKGHVESVVKLKGLDIETPSHYTV
B6: GP1BA 17-306 (Homo sapiens, UniProt P07359); sequence looked up; chain HPICEVSKVASHLEVNCDKRNLTALPPDLPKDTTILHLSENLLYTFSLATLMPYTRLTQLNLDRCELTKLQVDGTLPVLGTLDLSHNQLQSLPLLGQTLPALTVLDVSFNRLTSLPLGALRGLGELQELYLKGNELKTLPPGLLTPTPKLEKLSLANNNLTELPAGLLNGLENLDTLLLQENSLYTIPKGFFGSHLLPFAFLHGNPWLCNCEILYFRRWLQDNAENVYVWKQGVDVKAMTSNVASVQCDNSDKFPVYKYPGKGCPTLGDEGDTDLYDYYPEEDTEGDKVR
B7: VIP1 (Arabidopsis thaliana, UniProt Q9MA75); sequence looked up; chain MEGGGRGPNQTILSEIEHMPEAPRQRISHHRRARSETFFSGESIDDLLLFDPSDIDFSSLDFLNAPPPPQQSQQQPQASPMSVDSEETSSNGVVPPNSLPPKPEARFGRHVRSFSVDSDFFDDLGVTEEKFIATSSGEKKKGNHHHSRSNSMDGEMSSASFNIESILASVSGKDSGKKNMGMGGDRLAELALLDPKRAKRILANRQSAARSKERKIRYTGELERKVQTLQNEATTLSAQVTMLQRGTSELNTENKHLKMRLQALEQQAELRDALNEALRDELNRLKVVAGEIPQGNGNSYNRAQFSSQQSAMNQFGNKTNQQMSTNGQPSLPSYMDFTKRG
B8: NOTCH4 276-511 (Homo sapiens, UniProt Q99466); sequence looked up; chain NPDNCVSHQCQNGGTCQDGLDTYTCLCPETWTGWDCSEDVDECETQGPPHCRNGGTCQNSAGSFHCVCVSGWGGTSCEENLDDCIAATCAPGSTCIDRVGSFSCLCPPGRTGLLCHLEDMCLSQPCHGDAQCSTNPLTGSTLCLCQPGYSGPTCHQDLDECLMAQQGPSPCEHGGSCLNTPGSFNCLCPPGYTGSRCEADHNECLSQPCHPGSTCLDLLATFHCLCPPGLEGQLCE
B9: mrc1 781-851 (Schizosaccharomyces pombe, UniProt Q9P7T4); sequence looked up; chain GALRKRNRNGFAALDDSDDEDYSNLRREKLKELRRQKLLEDGNLNVLEGDKRKAFLATVEDSLVSSKDNLT
B10: Ncoa1 260-369 (Mus musculus, UniProt P70365); sequence looked up; chain ESFMTKQDTTGKIISIDTSSLRAAGRTGWEDLVRKCIYAFFQPQGREPSYARQLFQEVMTRGTASSPSYRFILNDGTMLSAHTKCKLCYPQSPDMQPFIMGIHIIDREHS
B11: PTPN6 1-109 (Homo sapiens, UniProt P29350-3); chain MLSRGWFHRDLSGLDAETLLKGRGVHGSFLARPSRKNQGDFSLSVRVGDQVTHIRIQNSGDFYDLYGGEKFATLTELVEYYTQQQGVLQDRDGTIIHLKYPLNCSDPTS
B12: CCDC32 1-100 (Mus musculus, UniProt Q8BS39); chain MKMFESLDSSATKSGRDLWAEICSCLPSPAQEDVSDNAFSDSFMDSHPAGESHTAAADSAVQPAGKPWAPLHDSEVYLASLEKKLRRIKGLNEEVTSKDM
B13: SNAPC1 1-268 (Homo sapiens, UniProt Q16533); chain MGTPPGLQTDCEALLSRFQETDSVRFEDFTELWRNMKFGTIFCGRMRNLEKNMFTKEALALAWRYFLPPYTFQIRVGALYLLYGLYNTQLCQPKQKIRVALKDWDEVLKFQQDLVNAQHFDAAYIFRKLRLDRAFHFTAMPKLLSYRMKKKIHRAEVTEEFKDPSDRVMKLITSDVLEEMLNVHDHYQNMKHVISVDKSKPDKALSLIKDDFFDNIKNIVLEHQQWHKDRKNPSLKSKTNDGEEKMEGNSQETERCERAESLAKIKSK
B14: POL30 1-258 (Saccharomyces cerevisiae, UniProt P15873); chain MLEAKFEEASLFKRIIDGFKDCVQLVNFQCKEDGIIAQAVDDSRVLLVSLEIGVEAFQEYRCDHPVTLGMDLTSLSKILRCGNNTDTLTLIADNTPDSIILLFEDTKKDRIAEYSLKLMDIDADFLKIEELQYDSTLSLPSSEFSKIVRDLSQLSDSINIMITKETIKFVADGDIGSGSVIIKPFVDMEHPETSIKLEMDQPVDLTFGAKYLLDIIKGSSLSDRVGIRLSSEAPALFQFDLKSGFLQFFLAPKFNDEE
B15: PIN1 42-163 (Homo sapiens, UniProt Q13526); chain SSGGKNGQGEPARVRCSHLLVKHSQSRRPSSWRQEKITRTKEEALELINGYIQKIKSGEEDFESLASQFSDCSSAKARGDLGAFSRGQMQKPFEDASFALRTGEMSGPVFTDSGIHIILRTE
B16: PAN1 543-850 (Saccharomyces cerevisiae, UniProt P32521); sequence looked up; chain LTGLQPQPTGFLPPSNFSATMPLTAQKTGFGNNEIYTKSNFNNNLIDNSSQDKISTEEKSLFYKIFETFDTQNKGLLDSPTAVEIFRKSGLNRADLEQIWNLCDINNTGQLNKQEFALGMHLVYGKLNGKPIPNVLPSSLIPSSTKLLDNLKNQLKTEPTTTKEKPSFGKIDALSYKNNDDDVLPNYRNRRKVYSAKNEEQSSFSSPSAKSVNHSSSTLQTDDISVDKTVEKKTAKPKYAGFSREINLKNIASLENEIKNISNPENCYDSSIPSDLTSRFDAIIAKLPNLFNEISTIDNEITNAKIQL
B17: human zyxin; sequence looked up; chain AAPRPSPAISVSVSAPAFYAPQKKFGPVVAPKPKVNPFRPGDSEPPPAPGAQRAQMGRVGEIPPPPPEDFPLPPPPLAGDGDDAEGALGGAFPPPPPPIEESFPPAPLEEEIFPSPPPPPEEEGGPEAPIPPPPQPREKVSSIDLEIDSLSSLLDDMTKNDPFKARVSSGYVPPPVATPFSSKSSTKPAAGGTAPLPPWKSPSSSQPLPQVPAPAQSQTQFHVQPQPQPKPQVQLHVQSQTQPVSLANTQPRGPPASSPAPAPKFSPVTPKFTPVASKFSPGAPGGSGSQPNQKLGHPEALSAGTGSPQPPSFTYAQQREKPRVQEKQHPVPPPAQNQNQVRSPGAPGPLTLKEVEELEQLTQQLMQDMEHPQRQNVAVNELCGRCHQPLARAQPAVRALGQLFHIACFTCHQCAQQLQGQQFYSLEGAPYCEGCYTDTLEKCNTCGEPITDRMLRATGKAYHPHCFTCVVCARPLEGTSFIVDQANRPHCVPDYHKQYAPRCSVCSEPIMPEPGRDETVRVVALDKNFHMKCYKCEDCGKPLSIEADDNGCFPLDGHVLCRKCHTARAQT
B18: CLNS1A 2-237 (Homo sapiens, UniProt P54105); sequence looked up; chain SFLKSFPPPGPAEGLLRQQPDTEAVLNGKGLGTGTLYIAESRLSWLDGSGLGFSLEYPTISLHALSRDRSDCLGEHLYVMVNAKFEEESKEPVADEEEEDSDDDVEPITEFRFVPSDKSALEAMFTAMCECQALHPDPEDEDSDDYDGEEYDVEAHEQGQGDIPTFYTYEEGLSHLTAEGQATLERLEGMLSQSVSSQYNMAGVRTEDSIRDYEDGMEVDTTPTVAGQFEDADVDH
B19: NCOA4 339-442 (UniProt Q13772); 2Fe-2S cluster bound; chain DWLVKTDSCTNCQGNQPKGVEIENLGNLKCLNDHLEAKKPLSTPSMVTEDWLVQNHQDPCKVEEVCRANEPCTSFAECVCDENCEKEALYKWLLKKEGKDKNGM
UniProt Q56235, sequence (whole entry, looked up): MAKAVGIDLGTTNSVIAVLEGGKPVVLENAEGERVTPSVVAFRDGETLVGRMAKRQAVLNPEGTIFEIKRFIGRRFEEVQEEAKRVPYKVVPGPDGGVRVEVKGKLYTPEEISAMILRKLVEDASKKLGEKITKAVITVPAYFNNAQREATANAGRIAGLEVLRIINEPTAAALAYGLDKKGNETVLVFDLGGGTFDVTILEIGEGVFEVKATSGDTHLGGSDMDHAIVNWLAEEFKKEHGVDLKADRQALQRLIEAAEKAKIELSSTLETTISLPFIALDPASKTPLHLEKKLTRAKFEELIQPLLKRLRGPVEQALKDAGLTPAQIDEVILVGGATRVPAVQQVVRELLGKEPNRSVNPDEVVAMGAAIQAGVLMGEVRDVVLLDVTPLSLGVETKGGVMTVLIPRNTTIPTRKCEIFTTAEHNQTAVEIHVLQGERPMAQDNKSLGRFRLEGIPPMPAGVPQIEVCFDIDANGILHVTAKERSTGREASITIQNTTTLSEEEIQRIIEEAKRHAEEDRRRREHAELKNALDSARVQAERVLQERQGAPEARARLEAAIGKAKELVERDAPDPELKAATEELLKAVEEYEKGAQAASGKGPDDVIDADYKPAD
UniProt P38251, sequence (whole entry, looked up): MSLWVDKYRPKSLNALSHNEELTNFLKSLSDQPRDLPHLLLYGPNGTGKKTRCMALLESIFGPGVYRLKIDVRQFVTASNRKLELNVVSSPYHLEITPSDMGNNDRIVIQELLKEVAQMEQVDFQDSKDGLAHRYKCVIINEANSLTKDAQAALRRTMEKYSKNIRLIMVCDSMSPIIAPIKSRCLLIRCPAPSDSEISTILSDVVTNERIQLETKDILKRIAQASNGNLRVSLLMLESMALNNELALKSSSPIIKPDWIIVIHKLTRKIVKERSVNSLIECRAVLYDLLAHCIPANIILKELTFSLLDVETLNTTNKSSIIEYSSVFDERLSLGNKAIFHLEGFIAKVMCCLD
UniProt Q12263, sequence (whole entry, looked up): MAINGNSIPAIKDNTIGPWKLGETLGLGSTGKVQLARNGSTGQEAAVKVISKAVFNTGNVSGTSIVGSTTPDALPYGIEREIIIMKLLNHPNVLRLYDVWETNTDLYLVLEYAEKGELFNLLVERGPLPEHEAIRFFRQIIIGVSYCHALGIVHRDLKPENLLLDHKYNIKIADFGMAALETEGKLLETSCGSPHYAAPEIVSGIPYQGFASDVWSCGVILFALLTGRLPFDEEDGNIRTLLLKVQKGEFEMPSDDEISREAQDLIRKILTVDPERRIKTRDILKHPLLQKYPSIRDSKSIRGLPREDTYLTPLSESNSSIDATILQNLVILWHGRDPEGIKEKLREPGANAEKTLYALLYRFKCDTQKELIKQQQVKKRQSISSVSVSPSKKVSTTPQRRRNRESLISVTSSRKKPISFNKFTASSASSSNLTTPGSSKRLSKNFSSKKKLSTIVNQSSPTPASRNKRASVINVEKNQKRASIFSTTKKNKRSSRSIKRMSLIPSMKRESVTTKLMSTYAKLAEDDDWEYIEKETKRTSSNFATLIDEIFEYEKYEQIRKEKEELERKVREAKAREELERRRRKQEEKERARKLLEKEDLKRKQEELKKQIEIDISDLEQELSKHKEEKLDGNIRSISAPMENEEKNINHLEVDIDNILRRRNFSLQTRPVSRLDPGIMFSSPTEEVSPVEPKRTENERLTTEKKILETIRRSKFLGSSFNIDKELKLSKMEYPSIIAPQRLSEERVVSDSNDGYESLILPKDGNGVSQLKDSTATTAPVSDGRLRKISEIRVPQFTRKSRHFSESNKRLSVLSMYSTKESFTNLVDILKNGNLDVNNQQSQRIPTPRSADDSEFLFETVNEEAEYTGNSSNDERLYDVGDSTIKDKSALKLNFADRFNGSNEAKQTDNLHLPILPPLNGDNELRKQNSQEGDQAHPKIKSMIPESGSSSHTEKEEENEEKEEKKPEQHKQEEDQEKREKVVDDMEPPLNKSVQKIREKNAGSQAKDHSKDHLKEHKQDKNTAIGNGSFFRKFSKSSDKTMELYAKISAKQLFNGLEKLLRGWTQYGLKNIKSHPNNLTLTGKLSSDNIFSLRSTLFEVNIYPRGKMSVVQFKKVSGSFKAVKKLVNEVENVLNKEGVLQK
UniProt P34111, sequence (whole entry, looked up): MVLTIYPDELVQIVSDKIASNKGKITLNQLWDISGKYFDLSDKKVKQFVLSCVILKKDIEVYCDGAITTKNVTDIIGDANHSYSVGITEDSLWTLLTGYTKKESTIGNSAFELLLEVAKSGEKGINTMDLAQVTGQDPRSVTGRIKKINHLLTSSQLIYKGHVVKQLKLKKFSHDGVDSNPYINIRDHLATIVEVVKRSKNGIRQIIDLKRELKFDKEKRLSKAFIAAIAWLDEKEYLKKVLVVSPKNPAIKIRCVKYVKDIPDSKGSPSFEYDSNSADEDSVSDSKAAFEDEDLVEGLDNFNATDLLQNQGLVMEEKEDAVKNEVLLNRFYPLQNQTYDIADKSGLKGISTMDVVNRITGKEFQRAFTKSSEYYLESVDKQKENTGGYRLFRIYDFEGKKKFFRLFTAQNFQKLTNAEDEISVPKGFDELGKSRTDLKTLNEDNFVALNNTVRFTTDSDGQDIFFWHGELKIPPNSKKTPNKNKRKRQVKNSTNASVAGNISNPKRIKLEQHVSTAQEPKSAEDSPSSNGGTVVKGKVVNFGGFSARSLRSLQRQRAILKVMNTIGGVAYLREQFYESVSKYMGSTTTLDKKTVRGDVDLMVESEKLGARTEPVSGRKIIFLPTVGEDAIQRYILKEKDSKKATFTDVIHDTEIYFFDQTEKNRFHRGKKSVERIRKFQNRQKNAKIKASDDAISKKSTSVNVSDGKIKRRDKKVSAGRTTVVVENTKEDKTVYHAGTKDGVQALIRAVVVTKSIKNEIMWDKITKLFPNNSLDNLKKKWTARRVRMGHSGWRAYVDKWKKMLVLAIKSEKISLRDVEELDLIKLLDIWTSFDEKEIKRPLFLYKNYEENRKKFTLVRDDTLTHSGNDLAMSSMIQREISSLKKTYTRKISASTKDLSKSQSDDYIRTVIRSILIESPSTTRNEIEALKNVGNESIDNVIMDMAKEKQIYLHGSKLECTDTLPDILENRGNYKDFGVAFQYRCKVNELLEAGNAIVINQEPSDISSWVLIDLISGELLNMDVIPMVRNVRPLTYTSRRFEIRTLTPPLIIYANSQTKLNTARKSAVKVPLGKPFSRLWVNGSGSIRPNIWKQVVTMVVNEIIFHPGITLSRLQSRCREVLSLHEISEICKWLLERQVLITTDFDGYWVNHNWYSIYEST
UniProt Q9Y5C1, sequence (whole entry, looked up): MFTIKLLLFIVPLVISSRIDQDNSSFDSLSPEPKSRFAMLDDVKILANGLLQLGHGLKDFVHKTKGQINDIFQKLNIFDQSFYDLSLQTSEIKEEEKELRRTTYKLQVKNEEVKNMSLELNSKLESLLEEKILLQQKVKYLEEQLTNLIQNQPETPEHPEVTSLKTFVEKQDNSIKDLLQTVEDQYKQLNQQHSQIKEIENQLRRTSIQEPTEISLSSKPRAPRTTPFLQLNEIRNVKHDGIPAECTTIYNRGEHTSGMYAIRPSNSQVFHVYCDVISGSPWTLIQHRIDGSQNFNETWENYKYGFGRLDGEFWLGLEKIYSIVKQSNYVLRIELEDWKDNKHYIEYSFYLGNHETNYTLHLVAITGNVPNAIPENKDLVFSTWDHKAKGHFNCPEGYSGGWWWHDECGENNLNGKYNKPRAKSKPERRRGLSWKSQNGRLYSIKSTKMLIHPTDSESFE
UniProt O65370, sequence (whole entry, looked up): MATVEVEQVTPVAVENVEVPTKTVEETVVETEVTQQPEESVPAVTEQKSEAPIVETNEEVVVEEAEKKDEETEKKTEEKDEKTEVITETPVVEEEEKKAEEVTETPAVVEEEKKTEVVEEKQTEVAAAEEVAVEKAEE
UniProt P43354, sequence (whole entry, unmodified, looked up): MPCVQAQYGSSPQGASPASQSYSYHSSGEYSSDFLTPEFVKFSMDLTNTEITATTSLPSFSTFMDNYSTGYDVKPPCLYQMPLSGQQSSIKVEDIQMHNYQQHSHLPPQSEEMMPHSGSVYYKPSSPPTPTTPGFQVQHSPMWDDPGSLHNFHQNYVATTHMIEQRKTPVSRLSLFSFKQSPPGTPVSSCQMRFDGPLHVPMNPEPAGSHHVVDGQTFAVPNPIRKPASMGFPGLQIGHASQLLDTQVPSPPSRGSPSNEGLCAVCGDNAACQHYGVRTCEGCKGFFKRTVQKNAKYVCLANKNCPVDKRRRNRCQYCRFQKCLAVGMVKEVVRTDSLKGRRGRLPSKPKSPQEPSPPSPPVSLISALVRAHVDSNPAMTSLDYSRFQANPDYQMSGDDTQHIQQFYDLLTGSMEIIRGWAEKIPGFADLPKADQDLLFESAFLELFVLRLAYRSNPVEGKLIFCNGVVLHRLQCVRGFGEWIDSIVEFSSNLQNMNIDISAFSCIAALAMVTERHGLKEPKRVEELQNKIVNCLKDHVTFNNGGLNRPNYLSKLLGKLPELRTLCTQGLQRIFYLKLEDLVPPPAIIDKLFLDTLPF
UniProt P84091, sequence (whole entry, looked up): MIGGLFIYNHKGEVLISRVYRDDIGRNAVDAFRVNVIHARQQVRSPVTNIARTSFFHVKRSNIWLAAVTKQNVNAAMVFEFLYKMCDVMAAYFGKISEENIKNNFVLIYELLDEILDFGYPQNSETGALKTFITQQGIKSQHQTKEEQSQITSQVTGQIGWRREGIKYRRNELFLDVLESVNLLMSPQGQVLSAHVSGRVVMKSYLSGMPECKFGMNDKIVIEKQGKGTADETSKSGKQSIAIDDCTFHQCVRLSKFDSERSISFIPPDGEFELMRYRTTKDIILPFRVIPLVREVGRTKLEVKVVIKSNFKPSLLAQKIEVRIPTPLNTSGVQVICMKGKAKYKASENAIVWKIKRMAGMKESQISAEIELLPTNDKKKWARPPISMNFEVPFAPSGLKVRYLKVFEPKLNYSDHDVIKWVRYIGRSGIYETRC

For `KESALRKQDLLLIFDPLFR (TACC3 to 568 550-568 S558D/Y560L/K562I/L567F (Homo sapiens, UniProt Q9Y6A5); sequence looked up)`, binding read “binds” (CLTC 358-574 (Homo sapiens, UniProt Q00610); peptide array; peptide).
`B1 (ANGPTL8)`: binding “binds” (ANGPTL3 full length, homotrimer (Homo sapiens, UniProt Q9Y5C1); HDX-MS; 25 °C).
`B2 (TFC1 1-649)` — result for binding: “binds” (TFC3 1-1160 (Saccharomyces cerevisiae, UniProt P34111); cryo-EM).
`B3 (EIF3J/GST 103-258)` — result for binding: “binds” (eIF3 octamer PCI/MPN core 5-654 (Homo sapiens, UniProt Q14152); EMSA).
Under binding, `B4 (ELM1 S519D)` is recorded as “binds” (GIN4 (Saccharomyces cerevisiae, UniProt Q12263); pull-down).
`B5 (AHA2 850-948)`: binding “binds” (CCaP2 (Arabidopsis thaliana, UniProt O65370); pull-down; in vitro).
`B6 (GP1BA 17-306)` — result for binding: “binds” (VWF mature, recombinant (Homo sapiens, UniProt P04275); ELISA).
Under binding, `B7 (VIP1)` is recorded as “binds” (FASS (Arabidopsis thaliana, UniProt Q9FEE2); pull-down).
For `B8 (NOTCH4 276-511)`, binding read “binds” (DLL4 27-400 G28S/F107L/I143F/H194Y/L206P (Homo sapiens, UniProt Q9NR61); SPR).
Under binding, `B9 (mrc1 781-851)` is recorded as “binds” (MCM2-7 complex/Mcm2-Flag MCM2-7 complex (Schizosaccharomyces pombe); pull-down).
For `B10 (Ncoa1 260-369)`, binding read “binds” (NR4A2 1-165 F34R/L35R (Homo sapiens, UniProt P43354); pull-down).
`B11 (PTPN6 1-109)` — result for binding: “binds” (CD22, tyrosine phosphorylated (Homo sapiens, UniProt P20273); far-Western blot; anti-IgM-stimulated).
Under binding, `B12 (CCDC32 1-100)` is recorded as “binds” (Ap2m1 122-435 (Mus musculus, UniProt P84091); pull-down).
`B13 (SNAPC1 1-268)` — result for binding: “binds” (SNAPC3 (Homo sapiens, UniProt Q92966); cryo-EM).
`B14 (POL30 1-258)`: binding “binds” (RFC5 1-354 (Saccharomyces cerevisiae, UniProt P38251); cryo-EM).
For `B15 (PIN1 42-163)`, binding read “binds” (PPARG AF-1 1-136, pT75, pS112 (Homo sapiens, UniProt P37231-1); NMR).
`B16 (PAN1 543-850)` — result for binding: “binds” (PAN1 689-1190 (Saccharomyces cerevisiae, UniProt P32521); pull-down).
`B17 (human zyxin)`: “log2 fold change” 0.58 (PP6C (human); co-immunoprecipitation, IP-MS; CYB5R4 knockout cells; concentration not given; relative to: CYB5R4 knockout over parental).
Under binding, `B18 (CLNS1A 2-237)` is recorded as “binds” (PRMT5/WDR77 full length, octamer (Homo sapiens); SEC).
Under binding, `MLARSGE (N-tail peptide residues 1-7 (Thermus thermophilus))` is recorded as “binds” (dnaK 388-500 (Thermus thermophilus, UniProt Q56235); NMR NOESY; peptide).
For `B19 (NCOA4 339-442)`, binding read “binds” (HERC2 2540-2700 (Homo sapiens, UniProt O95714); ITC).
`colistin` has an MIC of at most 1 µg/mL (Pseudomonas aeruginosa; clinical isolate RKI 369/11).
